Experimental data from different studies.
Every numbered part comes from another study and shows a few of its results, in no order.

Study 1 — technique: protein binding microarray; molecule type: double-stranded DNA, one strand shown; sample: in vitro; tested at: not given; relative to: not given; direction: higher = stronger binding
Target: Histone acetyltransferase KAT6A, winged helix 1, GST fusion (KAT6A, Homo sapiens, UniProt Q92794, residues 1-85)
Setting: 8-mer, flanks averaged, mean of 2 arrays, mostly near background
Target sequence (chain): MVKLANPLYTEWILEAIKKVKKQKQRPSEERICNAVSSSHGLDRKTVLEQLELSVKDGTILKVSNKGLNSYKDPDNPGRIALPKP
Oligonucleotide	E-score
AAATCAAT	-0.171
ATTTCCAC	-0.165
CGTGGGGA	-0.0877
TGTCAACA	-0.235
CTCTGCGC	0.259

Study 2 — technique: protein-binding microarray; molecule type: double-stranded DNA, one strand shown; sample: in vitro; tested at: 2540 nM top; setting: 60-bp whole probe; with: salmon DNA 0.4 mg/ml; relative to: random background probes; direction: higher = stronger binding
Target: Interferon regulatory factor 3, full length, phosphomimetic (IRF3, Homo sapiens, UniProt Q14653, residues 1-427, S386D/S396D/S398D/S402D/T404D/S405D)
Residues (chain): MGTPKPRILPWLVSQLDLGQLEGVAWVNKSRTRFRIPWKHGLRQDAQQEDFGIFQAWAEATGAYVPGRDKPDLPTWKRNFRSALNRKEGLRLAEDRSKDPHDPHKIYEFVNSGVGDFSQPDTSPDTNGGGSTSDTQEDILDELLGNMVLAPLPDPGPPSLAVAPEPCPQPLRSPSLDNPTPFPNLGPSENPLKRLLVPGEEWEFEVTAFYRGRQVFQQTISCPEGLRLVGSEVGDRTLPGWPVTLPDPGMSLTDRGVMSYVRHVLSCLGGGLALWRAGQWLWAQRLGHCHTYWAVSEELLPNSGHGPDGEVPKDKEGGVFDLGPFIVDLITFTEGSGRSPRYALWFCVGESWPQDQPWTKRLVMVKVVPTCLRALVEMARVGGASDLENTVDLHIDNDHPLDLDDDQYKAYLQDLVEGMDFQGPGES
Oligonucleotide	fitted relative affinity [z-score]
GCCTAGCACTTAGGACTGGGCTTTCGGTTAGTGCTAGTCTTGATTCGCTTGACGCTGCTG	0.103
GCCTAGCACTTAGGTTCCGGTGTCGGTTAGTGCTAGGTCTTGATTCGCTTGACGCTGCTG	2.53
GCCTAGCACTTAGGTCTCGGTCTCGGTTAGTGCTAGGTCTTGATTCGCTTGACGCTGCTG	1.32

Other studies, line by line
Substance	target	test	system	conditions	how to read	endpoint	result
CCGTGCAC	Protein max, full length (MAX, Homo sapiens, UniProt P61244-2, residues 1-151)	protein-binding microarray	double-stranded DNA, one strand shown, in vitro	not given, k-mer, scored over probes, only values ≥0.25	higher = stronger binding	E-score	0.337
PhoQ, residues 284 288 289 292 302 303 AGCYAI	PhoP, residues 12 14 15 18 19 SYFRT (Escherichia coli, UniProt P23836)	Sort-seq, item: YFP reporter	E. coli	PhoQ-PhoP variant library, with: 10 µM Mg2+	relative to: high Mg2+ state, higher = stronger signaling	fold induction	0.653

Repeated from above (study 1):
Oligonucleotide	E-score
CTCTGCGC	0.259
